Assay results from different studies.
Compare with care: the assays were run in different laboratories. Values joined by “and” are separate records of one study, mostly repeats; a detail may differ. ± marks the error that the study gave.

Compound | assay | test system | setting | scale | quantity | result
C=C(C)[C@@H]1CCC(C)=C[C@H]1c1c(O)cc(CCC)c(C(=O)O)c1O | LC-MS/MS | Scn1a+/− mice, plasma | intraperitoneal, 10 mg/kg, after hyperthermia protocol | – | plasma concentration | 9000 ± 2000 ng/mL
CCc1ccc(CC/C=C/c2ccc3c(c2)C(=O)CC3)cc1 | – | Sprague-Dawley rat, male | oral, 30 mg/kg/day, 14 days | – | MCHC | 311 g/L
CCN1CCN(Cc2ccc(Nc3ncc(F)c(-c4cc(F)c5nc6n(c5c4)[C@H](C)CCC6)n3)nc2)CC1 | – | advanced solid tumour patients | dose not given, Phase Ia monotherapy | – | leukopenia incidence, grade ≥3 | 4.2%
CCC[C@@](N)(CO)CCc1ccc(OCCCCCC(C)C)cc1 | – | male hound dog | oral, 2.5 mg/kg, solution, IV dose 1.0 mg/kg | – | oral bioavailability | 22%
Cn1cc(-c2nc(N[C@@H]3CCCC[C@@H]3N)c(F)c3c2C(=O)NC3)cn1 | refers to: Hematochezia | patients with relapsed or refractory AML | oral, 160 mg once daily | – | hemorrhagic adverse events | 11%
O=C(Nc1ccccc1)C1CCN(C(=O)Oc2cccnc2)CC1 | Bond-Lader VAS | healthy women | 60 mg | reference: pre-dose baseline, direction not given | change in calmness score | 14
O=[N+]([O-])NC1=NCCN1Cc1ccc(Cl)nc1 | ultrafiltration | cow milk whey | 20 nM nominal in whole milk | – | dose fraction in permeate | 61%
C=CC(=O)N1CCC(c2ccc(C(N)=O)c(-c3ccc(Oc4ccccc4)cc3)n2)CC1 | serious adverse event Death | patients with relapsed/refractory MCL | oral | – | incidence | 0.9%
CC(=O)c1c(C)c2cnc(Nc3ccc(C4CCN(CCS(C)(=O)=O)CC4)cn3)nc2n(C2CCCC2)c1=O | – | HR+/HER2- advanced breast cancer patients | oral, dose not given | – | patients with any TRAE | 94.7%
CO[C@H]1C[C@@H]2CC[C@@H](C)[C@@](O)(O2)C(=O)C(=O)N2CCCC[C@H]2C(=O)O[C@H]([C@H](C)C[C@@H]2CC[C@@H](OC(=O)NCCOCCOCCOCCOCCOCCOCCOCCOCCC(=O)N3CCc4cc(Cn5nc(-c6ccc7oc(N)nc7c6)c6c(N)ncnc65)ccc4C3)[C@H](OC)C2)C[C@@H](O)[C@H](C)/C=C(\C)[C@@H](O)[C@@H](OC)C(=O)[C@H](C)C[C@H](C)/C=C/C=C/C=C/1C | – | patients with advanced solid tumours | intravenous, 1.6 mg/3 mg weekly, any grade | – | incidence of Dyspnea TEAE | 0%
COc1cc2c(Oc3ccc4[nH]c(C)cc4c3F)ccnc2cc1OCC1(N)CC1 | refers to: grade 3 blurred vision | paediatric high-risk refractory sarcoma | whole group | – | incidence of adverse event | 0%
CC(C)CC(=O)OC[C@H]1O[C@@](C#N)(c2ccc3c(N)ncnn23)[C@H](O)[C@@H]1O | plasma protein binding | monkey plasma | 90 µM, time not given | – | recovery | 98.3%
O=C(Nc1cccc(B(O)O)c1)c1cccc(OCc2ccccc2)c1 | PAMPA | – | 200 µM, 5 h, pH 7.4 | – | membrane retention | 36.7%
CNC(=O)c1cc(Oc2ccc(NC(=O)Nc3cc(C(C)(C)C)nn3-c3ccc4ncccc4c3)c(F)c2)ccn1 | optic nerve disorder, NCI CTC v3.0 | human patients | oral, 150 mg twice daily, tablet, dose at onset | – | related SAE | 3%
CN1CCN(S(=O)(=O)c2cc([N+](=O)[O-])ccc2N(CCOS(C)(=O)=O)CCOS(C)(=O)=O)CC1 | – | naive NOD/SCID mice, pooled blood | intraperitoneal, 12.5 mg/kg, week 4 | – | total protein | 58 g/L
CN[C@@H](C)C(=O)N[C@H]1CN(S(=O)(=O)c2cccc(S(=O)(=O)N3CC[C@H]4CC[C@@H](C(=O)NC(c5ccccc5)c5ccccc5)N4C(=O)[C@@H](NC(=O)[C@H](C)NC)C3)c2)CC[C@H]2CC[C@@H](C(=O)NC(c3ccccc3)c3ccccc3)N2C1=O | – | patients with advanced solid tumours | 7 mg, phase I monotherapy | – | treatment-related AST elevation incidence | 0%
C[C@]1(CO)Cc2ncn(-c3ccc(C#N)c(Cl)c3)c2C(=O)O1 | – | human | 0.7 mg single dose | – | subjects with drug-related headache | 0%
COc1ncccc1-c1cnn2ccc(N3CCN(C(=O)OC(C)C)CC3)nc12 | – | mouse, formalin test, plasma | oral, 60 mg/kg, 60 min | – | drug concentration | 23 µM
COc1cc(C(=O)NC2CCN(C)CC2)c(F)cc1Nc1ncc(C(F)(F)F)c(Oc2cccc3c2C(=O)N(C)C3)n1 | – | human patients, plasma | oral, 50 mg once daily repeated, geometric mean | – | mean residence time at steady state | 27.9 h
N.N.[Cl][Pt][Cl] | – | mouse, serum | dose not given | – | uric acid | 7.8 mg/dL and 4.6 mg/dL and 4 mg/dL
COc1ccc(-c2c(-c3ccc(C#N)c(F)c3)nc(N3CCC(N)CC3)n(C)c2=O)cc1F | refers to: esophageal ulcer | human patients | oral, dose not given, dose escalation | – | serious TEAE incidence | 2%
C[C@]1(O)C[C@@](N)(c2ccc(-c3nc4n(c3-c3ccccc3)COc3ccncc3-4)cc2)C1 | – | human, advanced or metastatic solid tumours | dose not given, all patients, any grade | – | patients with Fatigue TEAE | 41.2%
CC(c1cncnc1)n1c(=S)[nH]c2ccc(Cl)cc2c1=O (stereo not shown) | – | mouse, plasma | intravenous, dose not given | – | clearance | 37.2 mL/min/kg
C[C@@H](NC(=O)N1C(=O)[C@H](Cc2ccnc(N)c2)[C@H]1C(=O)O)C1CCCCC1 | – | healthy adult Chinese volunteers | continuous intravenous infusion, 1.5 mg/kg/h, 5-day infusion, CTCAE 5.0 grading | – | drug-related decreased neutrophil | 0%
CC(C)[C@@H]1CC[C@@H](C)C[C@@H]1O | acute oral toxicity OECD | Swiss albino mice, serum | oral, 1000 mg/kg | – | cholesterol | 72.7 ± 1.37 mg/dL
